# Assay results pooled from the literature.
# Protocols differ between the studies behind these lines.
SMILES,assay,system,conditions,quantity,value
C[C@H]1CN(C(=O)CC#N)[C@]12CCN(c1ncnc3[nH]ccc13)C2,,healthy human,"oral, 1.5 mg, single dose",subjects with Headache,12.5%
CN1CCN(c2cccc3c2CCN(C(=O)/C=C/c2c(-n4cnnn4)ccc(Cl)c2F)[C@@H]3C(=O)Nc2ccc(C(=O)O)cc2)C(=O)C1,,healthy human subjects,"intravenous infusion, 10 mg/h, 2 h",subjects with treatment-related adverse event,0%
CNC(=O)c1ccc(-c2cnc3ncc(Cc4ccc5ncccc5c4)n3n2)cc1F,,healthy human subjects,"oral, 200 mg, Insomnia, all grades, all causality, together with: itraconazole 200 mg/day",subjects with adverse event,7.4%
CC(C)n1c(Nc2cccnc2)nc2cnc(Nc3ccc(N4CCN(C)CC4)cc3)nc21,measured: white blood cell count elevated,"healthy human, male","oral, dose not given, CTCAE grade 1-3",subjects with TEAE,2.4%
CC(C)(C(=O)N1CCOc2c(C#N)cncc2C1)C(F)F,measured: Conjunctivitis,human,"oral, 15 mg twice daily, 14 days, multiple ascending dose",subjects with adverse event,0%
C[C@@H](Oc1ccc(S(C)(=O)=O)cc1C(=O)N1C[C@@H]2C[C@]2(c2cc(C(F)(F)F)on2)C1)C(F)(F)F,,human,"oral plus intravenous microtracer, dose not given",subjects with related diarrhoea,0%
Cc1cc(-c2nccc3c2ccn3CC(=O)Nc2ccc(-c3cnccn3)cn2)ccn1,,human,"5 mg once daily, multiple ascending dose",subjects with breath odour,0%
Cc1cc(Nc2cc3ncccc3c(N[C@@H]3C[C@H]4CC[C@@H](C3)N4CCC#N)n2)n[nH]1,,healthy human,"oral, 300 mg multiple doses, 14 days",subjects with epistaxis,0%
